Measured values from different studies.
Each line is one published result; not all experiments were run side by side. “And” joins repeats or separate records; there may be more than shown. ± gives the spread as reported.

Compound	tested on	test	system	setting	endpoint	result
O=C(c1cccc(-c2ccc3ncnc(Nc4ccc(OCc5cccc(F)c5)c(Cl)c4)c3c2)c1)N1CCOCC1	Plasmodium falciparum	parasite growth, SYBR Green fluorescence	W2, drug-resistant		EC50	1100 nM
C[C@H](NC(=O)[C@@H](O)c1cc(F)cc(F)c1)C(=O)N[C@@H]1C(=O)N(C)c2ccccc2-c2ccccc21	dengue virus 2	viral replication, luciferase reporter virus	Huh-7.5.1		EC50	5 nM
O=S(=O)(c1ccc(-c2ccc3ncnc(Nc4ccc(OCc5cccc(F)c5)c(Cl)c4)c3c2)cc1)N1CCCCC1	Plasmodium falciparum	parasite growth, SYBR Green fluorescence	C235 (TM91C235), drug-resistant		EC50	240 nM
CCC1(CC)CC(=O)N(C2CCOc3ccc(C(=O)NC4CC(C)(C)Oc5ccccc54)cc32)C(=N)N1 (centres unmarked)	Plasmodium falciparum	parasite growth	W2Mef		EC50	0.3 nM
O=C1NC2(CC2)COc2ncc(F)cc2[C@H]2COCCN2c2ccn3ncc1c3n2			Sprague-Dawley rat, male, spleen	oral, 5 mg/kg/day, 4 weeks, end of treatment	organ-to-body weight ratio	0.27 ± 0.028%
C[C@H](NC(=O)Cc1cc(F)cc(F)c1)C(=O)N[C@@H]1C(=O)N(C)c2ccccc2-c2ccccc21	Dengue virus	viral replication, inhibitor, luciferase	NHDF	48 h	EC50	106 nM
C[C@H](Oc1ccc(C(=O)c2ccc(F)cc2)cc1)C(=O)N1CCc2ccc(C(F)(F)F)cc21	Plasmodium falciparum	parasite growth, SYBR Green	3D7	72 h	EC50	28.3 nM
CCN(CC)CCCC(C)Nc1ccnc2cc(Cl)ccc12 (centres unmarked)	Plasmodium falciparum	parasite growth	K1		EC50	553 ± 106 nM
CN1CCN(c2cccc(-c3ccc4ncnc(Nc5ccc(OCc6cccc(F)c6)c(Cl)c5)c4c3)c2)CC1	Plasmodium falciparum	parasite growth, SYBR Green fluorescence	C235 (TM91C235), drug-resistant		EC50	110 nM
CC1(C)Cc2sc(NC(=O)Cc3ccc(S(N)(=O)=O)cc3)c(C#N)c2CN1CC1CCCCC1	Dengue virus 2	viral replication	P15-S9 passaged with DMSO		EC50	5.89 nM and 6.57 nM
O=S(=O)(c1cccc(-c2ccc3ncnc(Nc4ccc(OCc5cccc(F)c5)c(Cl)c4)c3c2)c1)N1CCOCC1	Plasmodium falciparum	parasite growth, SYBR Green fluorescence	C235 (TM91C235), drug-resistant		EC50	290 nM
Cc1nc2ccc(-c3ccc(OC(F)(F)F)cc3)cc2c(O)c1C#N	Plasmodium falciparum	parasite growth, SYBR Green	3D7		EC50	9.82 nM
COc1ccccc1-c1n[nH]c2nc(N[C@H]3CC[C@H](NS(=O)(=O)CC(C)C)CC3)ncc12	Leishmania donovani	cell growth	promastigotes, LdBOB CRK6 overexpressing		EC50	1.34 ± 0.07 nM
COc1cc(Nc2ncnc3ccc(-c4ccc(S(=O)(=O)N5CCOCC5)cc4)cc23)ccc1OCc1cccc(F)c1	Plasmodium falciparum	parasite growth, SYBR Green	D6	blood stage	EC50	440 nM
CC(NC(=O)c1cccc(C(c2ccccc2)N2C(=N)NC(C)(C(C)C)CC2=O)c1)c1ccccc1 (centres unmarked)	Plasmodium falciparum	parasite growth	Dd2-NITD609		EC50	7.9 nM
O=C(c1cncc(-c2ccc3ncnc(Nc4ccc(OCc5cccc(F)c5)c(Cl)c4)c3c2)c1)N1CCOCC1	Plasmodium falciparum	parasite growth, SYBR Green	D6	blood stage	EC50	370 nM
C[C@H]1Cc2c([nH]c3cc(Cl)c(F)cc23)[C@@]2(N1)C(=O)Nc1ccc(Cl)cc12	Plasmodium falciparum	parasite growth	3D7		EC50	1.5 ± 0.2 nM
O=C(NCc1ccc(Cl)cn1)C(=O)C(Cc1ccccc1)NC(=O)C1CC(F)CN1C(=O)C(NC(=O)C1CCC(F)(F)CC1)C1CCCCC1 (centres unmarked)	HCoV-NL63	viral replication	LLC-MK2		EC50	2600 nM
Cc1cc(Nc2ccc(Cl)cc2)n2nc(C(F)(F)F)nc2n1	Plasmodium falciparum	parasite growth			EC50	3220 ± 1300 nM
O=C1C(O)=C([C@H]2CC[C@H](c3ccc(Cl)cc3)CC2)C(=O)c2ccccc21	Plasmodium falciparum	parasite growth	Dd2-NITD609		EC50	1.3 ± 0.2 nM

For quick reference, copied from above:
Compound	tested on	test	system	setting	endpoint	result
O=C1NC2(CC2)COc2ncc(F)cc2[C@H]2COCCN2c2ccn3ncc1c3n2			Sprague-Dawley rat, male, spleen	oral, 5 mg/kg/day, 4 weeks, end of treatment	organ-to-body weight ratio	0.27 ± 0.028%
